Measurements pooled from the literature.
Compare with care: the assays were run in different laboratories. ± marks the error that the study gave.

SMILES	tested on	test	test system	conditions	how to read	endpoint	value
CC(C)Nc1ccnc(Nc2cccc(-c3cccnc3)c2)n1	MOLM-13 (FLT3-ITD/D835Y)	cell viability, MTT		72 h		EC50	0.082 µM
CCn1cc(-c2cc(Cn3ccnc3)cc3c2CCN([C@H](c2cc(OC)ccn2)C2CC2)C3=O)c(C(F)(F)F)n1	TOV21G	cell growth, inhibitor		120 h		EC50	9.17 µM
CC1(C)CCC(CN2CCN(c3ccc(C(=O)NS(=O)(=O)c4ccc(NCC5CCOCC5)c([N+](=O)[O-])c4)c(Oc4cnc5[nH]ccc5c4)c3)CC2)=C(c2ccc(Cl)cc2)C1	canine unclassified myeloid leukaemia cells	cell killing		24 h		EC50	0.025 µM
COc1cc(-c2ccccc2)ncc1C(=O)Nc1ccc2c(=O)[nH]c(-c3ccc(C(C)(C)O)cc3)nc2c1	Apc Q1405X mutant organoids	organoid area, live-cell imaging	mouse small intestinal organoids	144 h, Tnks1 genotype Tnks1-/-		EC50	0.0886 µM
CC(C)(O)c1ccn2c(-c3ccc(F)c(-c4ccc(F)cc4C#N)c3)cnc2c1F	HEK-293T ATF4-FLuc reporter	reporter gene, activator				EC50	4.08 µM
C=CC[C@@H]1/C=C(\C)C[C@H](C)C[C@H](OC)[C@H]2O[C@@](O)(C(=O)C(=O)N3CCCC[C@H]3C(=O)O[C@H](/C(C)=C/[C@@H]3CC[C@@H](O)[C@H](OC)C3)[C@H](C)[C@@H](O)CC1=O)[C@H](C)C[C@@H]2OC	Jurkat wild type	NFAT luciferase reporter				EC50	1.38e-05 µM
CC(C)Nc1ccnc(Nc2cccc(-c3cnccn3)c2)n1	MOLM-13 (FLT3-ITD)	cell viability, MTT		72 h		EC50	0.045 µM
N.N.O=C([O-])C1(C(=O)[O-])CCC1.[Pt+2]	PEO4 platinum-resistant	cell viability				EC50	190 µM
CN1CC(Oc2cnc(C#N)cc2-c2ccn3nc(NC(=O)C4CC4)cc3c2)C1	dendritic cells, mouse, bone marrow-derived	cytokine release increase, measured: IL-10		together with: LPS		EC50	1.03 µM
Cc1cc2c(C(N)=O)cccc2n1-c1nc2c(c(NCc3ccccc3)n1)COCC2	HEK-293T ATF4-FLuc reporter	reporter gene, activator				EC50	0.778 µM
O=C(ONc1nc2nonc2nc1Nc1ccccc1F)c1ccccc1F	L6 rat myoblasts	oxygen consumption rate, Seahorse XF analyzer				EC50	> 100 µM
CC(C)Nc1ccnc(Nc2ccccc2-c2ccccc2)n1	MOLM-13 (FLT3-ITD/D835Y)	cell viability, MTT		72 h		EC50	4.26 µM
CCn1cc(-c2cc(Cn3ccoc3=N)cc3c2CCN([C@@H](C)c2cc(OC)ccn2)C3=O)c(C(F)(F)F)n1	HCC15	cell growth, inhibitor		120 h		EC50	> 30 µM
c1cc(N2CCCC2)ccc1-c1cc2ncc(OCC3CCNCC3)nc2cc1-c1ccc(N2CCCC2)cc1	NB-4	cell proliferation, XTT		7 days		EC50	5.2 ± 0.62 µM
c1cncc(-c2cccc(Nc3nccc(NC4CCCCC4)n3)c2)c1	MOLM-13 (FLT3-ITD)	cell viability, MTT		72 h		EC50	0.62 µM
c1cc(-c2cc3ncc(OCC4CCNCC4)nc3cc2-c2cccc(N3CCCCC3)c2)cc(N2CCCCC2)c1	NB-4	cell proliferation, XTT		7 days		EC50	1.3 ± 0.13 µM
C[C@]12CCCN1CC1=NNC(=O)c3cc(F)cc4[nH]c2c1c34	NCI-N87			together with: temozolomide		EC50	> 10 µM
c1ccc(Oc2ccc(Nc3ccc4ncc(OCC5CCNCC5)nc4c3)cc2)cc1	NB-4	cell proliferation, XTT		7 days		EC50	1.4 ± 0.21 µM
CCC(C)C(=O)C(=O)O (stereo not shown)		binding, equilibrium dialysis LC-MS		5 µM, thermostabilized A2AR-BRIL construct	reference: no-protein control, direction not given	z-scored log2 fold change	-0.0335
CC(=O)c1ccc(-c2cccc(NC(=O)CCc3cccc4c3B(O)OC4)c2)cc1	HeLa CPSF3 Y207H mutant	transcriptional read-through, RT-qPCR, measured: SCARF1 read-through mRNA downstream of RILP			reference: GAPDH	EC50	0.704 µM
O=c1[nH]cnc2c1ncn2[C@H]1C[C@H](O)[C@@H](CO)O1		binding, equilibrium dialysis LC-MS		5 µM, thermostabilized A2AR-BRIL construct	reference: no-protein control, direction not given	z-scored log2 fold change	0.272
COc1cnc2cccc(N3CCc4c(cc(Cn5ccnc5C)cc4-c4cn(C)nc4C(F)(F)F)C3=O)c2c1	MKN-74	cell growth, inhibitor		120 h		EC50	> 30 µM

A few entries again:
SMILES	tested on	test	test system	conditions	how to read	endpoint	value
COc1cnc2cccc(N3CCc4c(cc(Cn5ccnc5C)cc4-c4cn(C)nc4C(F)(F)F)C3=O)c2c1	MKN-74	cell growth, inhibitor		120 h		EC50	> 30 µM
CC(C)(O)c1ccn2c(-c3ccc(F)c(-c4ccc(F)cc4C#N)c3)cnc2c1F	HEK-293T ATF4-FLuc reporter	reporter gene, activator				EC50	4.08 µM
